Results gathered from unrelated publications.
A part holds a random share of what one study measured. Positions count from the first letter of the parent shown.

Block 1 — technique: universal PBM; molecule type: double-stranded DNA, one strand shown; matrix: in vitro; concentration: 600 nM; reading: higher = stronger binding
Target: Sal-like protein 4, full length isoform A (SALL4, Homo sapiens, UniProt Q9UJQ4, residues 1-1053)
Sequence of UniProt Q9UJQ4 (whole entry, looked up): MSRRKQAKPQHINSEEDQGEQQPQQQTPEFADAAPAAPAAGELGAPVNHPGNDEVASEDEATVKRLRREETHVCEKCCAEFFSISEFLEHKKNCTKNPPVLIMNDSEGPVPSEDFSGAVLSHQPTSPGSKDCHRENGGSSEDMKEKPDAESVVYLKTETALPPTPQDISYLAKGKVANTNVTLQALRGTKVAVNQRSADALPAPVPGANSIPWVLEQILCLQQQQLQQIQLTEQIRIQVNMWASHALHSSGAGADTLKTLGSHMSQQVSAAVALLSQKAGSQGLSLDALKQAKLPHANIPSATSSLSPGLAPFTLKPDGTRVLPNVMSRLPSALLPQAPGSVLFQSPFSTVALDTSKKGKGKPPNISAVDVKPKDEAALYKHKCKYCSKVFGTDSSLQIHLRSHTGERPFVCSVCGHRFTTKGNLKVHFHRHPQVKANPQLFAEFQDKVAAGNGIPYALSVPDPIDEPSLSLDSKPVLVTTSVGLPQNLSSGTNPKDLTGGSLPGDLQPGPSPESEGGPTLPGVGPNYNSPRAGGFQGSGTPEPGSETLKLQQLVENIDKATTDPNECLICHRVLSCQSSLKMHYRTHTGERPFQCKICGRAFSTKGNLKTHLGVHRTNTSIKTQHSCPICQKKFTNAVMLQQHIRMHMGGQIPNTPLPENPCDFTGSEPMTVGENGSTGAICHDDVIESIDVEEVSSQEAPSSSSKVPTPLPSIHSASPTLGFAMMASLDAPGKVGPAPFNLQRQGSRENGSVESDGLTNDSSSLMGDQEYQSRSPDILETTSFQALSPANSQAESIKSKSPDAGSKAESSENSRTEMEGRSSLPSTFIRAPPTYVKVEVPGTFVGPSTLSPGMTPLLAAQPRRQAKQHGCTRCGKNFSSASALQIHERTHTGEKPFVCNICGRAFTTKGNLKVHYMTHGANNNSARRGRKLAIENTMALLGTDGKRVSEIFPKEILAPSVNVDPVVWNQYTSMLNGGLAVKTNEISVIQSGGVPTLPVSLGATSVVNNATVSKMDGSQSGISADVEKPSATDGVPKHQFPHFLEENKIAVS
Setting: 8-mer, flanks averaged, mean of replicates
Strand	E-score
CATTCCCC	-0.181
CCTCTCTA	-0.273
CGTCTTAA	0.03
AACAGTAG	0.104
CAGAGCAA	-0.0499
AGGATGTG	0.0426
AATACACG	0.137
GCCACCAA	-0.112
GACGTCAC	-0.245
AGCTCGAA	-0.119
CCCCACAA	-0.12
GCTCAGAA	-0.146
ACCAACCC	-0.224

Block 2 — target: CCNB1, cyclin fold, Cln2 fusion (human); technique: yeast growth competition, sequencing; matrix: yeast; setting: weak parent motif; reference: not given; reading: higher = stronger binding
Starting sequence: GMNC docking peptide (human); KNAKRNLSSEFAN
Substitution	normalised enrichment score
KCAKRNLSSEFAN [N2C]	0.00476
KNWKRNLSSEFAN [A3W]	0.677
KNAKRNLSSEAAN [F11A]	0.313
KNAKRNLSCEFAN [S9C]	0.0353
KNHKRNLSSEFAN [A3H]	0.7
KNAKDNLSSEFAN [R5D]	0.0718
KNAKWNLSSEFAN [R5W]	0.266

Block 3 — technique: RNA Bind-n-Seq; molecule type: RNA; matrix: in vitro; concentration: 100 nM; reference: input RNA pool; reading: higher = stronger binding
Target: RING finger protein unkempt homolog, zinc fingers 1-6, SBP tag (UNK, Homo sapiens, UniProt Q9C0B0, residues 30-357)
Sequence of UniProt Q9C0B0 (30-357, looked up): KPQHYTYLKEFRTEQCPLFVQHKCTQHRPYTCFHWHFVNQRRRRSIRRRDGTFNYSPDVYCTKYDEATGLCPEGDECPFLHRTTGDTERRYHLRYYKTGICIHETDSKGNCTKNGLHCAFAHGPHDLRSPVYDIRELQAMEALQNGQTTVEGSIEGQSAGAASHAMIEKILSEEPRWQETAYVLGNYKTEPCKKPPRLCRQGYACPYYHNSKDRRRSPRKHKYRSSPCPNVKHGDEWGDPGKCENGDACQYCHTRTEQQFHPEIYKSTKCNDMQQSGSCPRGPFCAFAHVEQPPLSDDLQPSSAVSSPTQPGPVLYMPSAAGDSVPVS
Setting: RNA with constant flanks, vertebrate orthologous sites, ends assumed
Constant ends, left off below: GGGAGUUCUACAGUCCGACGAUC … CAACAGAGGAUUGAGCAUCA
Strand	bound/input enrichment
AACAUAUGUAGAAAAACCAGUUUCACUGAACCCAUUGUCAAGUUUUCUCCUAAAAUUUUAUUUGGACUUCUUUUGUUUUAUACAAGUUUGCUGUGUUUGUCAUUAUUAGUCCACAAUUAA	0.435 ratio
CUCACACUUAGUGUGUCCAAAAAUUGCUAUGAGGGUUUGAAACGUUCAAUAGUUUUCACGUAGAACUACGCUGGCAGGUGCUCAAGUACCAUCAUAGCAAUAUCGAAUACUGUCACAAUA	0.966 ratio
UUGGAACCAGUUCUCCAAAUAGAAAUGGUACUAAAAAAAAUAAGCAAAAUGAUAUUUGUGUGGAAAAAACAGAAGUUAAAUCAUGUAAAGCAAAUACUGUGAAUAUUCCAGGCCCUAAAG	0.316 ratio
UUUGUGGAGGGAGAAAGACAAGUUUCUUCUCUCUUUCAAGUAAAACUGAAAUAAUUUUCUUUUAUUUCUGUCUUGGAAAACAAAGAUGGCCUAUUCUCUUAACUGUGCUACAAUACCAUC	0.251 ratio
UUCAGGCACAACUGACUGGUUCACAGCAUUCCUUACAUAGUUACCUAUCAAAUGCUAGUGUAGUUAAUUUUCAGGAAACAACCAGGCAGUCAUCUUUAUCCUGUAGCUCAGUUGGAGAGU	1.39 ratio
UGCAGCCUUCCUCCUGGGGCGGCCUGGGAUCUGUAAGGUUGAUGACGAAUGUAUUAUAUCUAGUUGAGAUUAAUAUUUUUUAUUAGCCUGUGAAUGAAGAUGGCAUCUCCCACAUUAAAA	0.223 ratio
GUGAGGGUCUACUGACCACUCACUGUUAUGUCUGGUAUCUGUAAACACUCUUUUUGUUCUUAGUCUUUUUCUUGUAUAAUUGAUGUUCUUUAAAAUUGUUAAUGUAUAACAGGGCUUAUG	1.94 ratio
UAUUUGAGUUAGUUUUUCAUGUUUUCUGUAAAUAAUGGAUAAUCUUUUUAAAGUUUAUUUAAGUGCUGUUUUAACAACGAGGGCAGACUAUAAAUGUACUUGCUGAACUCAUUCAUUUUU	0.607 ratio

Further values, each from its own experiment
Molecule	target	assay	system	conditions	scale	measurement	result
PhoQ, residues 284 288 289 292 302 303 SLSLLA	PhoP, residues 12 14 15 18 19 SGWQI (Escherichia coli, UniProt P23836)	Sort-seq, refers to: YFP reporter	E. coli	PhoQ-PhoP variant library, with: 10 µM Mg2+	reference: high Mg2+ state, higher = stronger signaling	fold induction	27.4

For quick reference, copied from above (block 2):
Substitution	normalised enrichment score
KNAKRNLSSEAAN [F11A]	0.313
KNAKRNLSCEFAN [S9C]	0.0353
